Published values of several laboratories.
± marks the error that the study gave.
Uncharacterized protein: Uncharacterized protein (Equus caballus, UniProt Q38RB9)
Cytochrome P450 2A13: Cytochrome P450 2A13 (Homo sapiens, UniProt Q16696)
Chain of UniProt Q16696 (whole entry, looked up): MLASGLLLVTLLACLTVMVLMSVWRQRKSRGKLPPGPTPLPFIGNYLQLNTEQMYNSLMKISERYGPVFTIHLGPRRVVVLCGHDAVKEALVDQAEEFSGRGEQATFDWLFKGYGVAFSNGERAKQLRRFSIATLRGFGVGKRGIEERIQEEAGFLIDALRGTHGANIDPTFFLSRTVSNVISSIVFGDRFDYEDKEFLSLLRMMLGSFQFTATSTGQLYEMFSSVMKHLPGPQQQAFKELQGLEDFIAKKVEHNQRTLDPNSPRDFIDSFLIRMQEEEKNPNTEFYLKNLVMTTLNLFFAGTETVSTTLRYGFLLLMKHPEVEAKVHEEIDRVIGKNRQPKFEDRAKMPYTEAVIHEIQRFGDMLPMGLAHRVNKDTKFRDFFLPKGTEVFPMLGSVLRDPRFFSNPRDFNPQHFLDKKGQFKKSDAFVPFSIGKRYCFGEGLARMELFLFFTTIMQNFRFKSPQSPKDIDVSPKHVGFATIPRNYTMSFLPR
gag-pol reverse transcriptase: Gag-Pol polyprotein, reverse transcriptase (gag-pol, Human immunodeficiency virus 1, UniProt P03366)
Chain of UniProt Q01959 (whole entry, looked up): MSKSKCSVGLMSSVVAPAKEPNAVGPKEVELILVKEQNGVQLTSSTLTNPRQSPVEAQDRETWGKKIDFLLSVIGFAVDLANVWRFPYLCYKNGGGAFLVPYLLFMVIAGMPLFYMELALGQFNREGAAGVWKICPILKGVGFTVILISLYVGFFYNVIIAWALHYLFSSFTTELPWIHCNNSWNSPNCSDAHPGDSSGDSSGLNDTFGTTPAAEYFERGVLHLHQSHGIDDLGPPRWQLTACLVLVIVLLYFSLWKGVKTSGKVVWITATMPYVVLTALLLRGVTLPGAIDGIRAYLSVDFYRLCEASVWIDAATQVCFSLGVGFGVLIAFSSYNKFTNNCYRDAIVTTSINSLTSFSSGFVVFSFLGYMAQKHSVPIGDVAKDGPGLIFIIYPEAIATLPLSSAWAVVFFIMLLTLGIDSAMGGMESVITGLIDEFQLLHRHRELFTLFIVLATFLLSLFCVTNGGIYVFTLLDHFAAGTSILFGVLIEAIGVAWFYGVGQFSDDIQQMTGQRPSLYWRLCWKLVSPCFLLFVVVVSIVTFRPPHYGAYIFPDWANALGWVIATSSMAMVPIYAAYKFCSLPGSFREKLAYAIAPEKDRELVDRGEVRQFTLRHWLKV
Chain of UniProt P02708 (whole entry, looked up): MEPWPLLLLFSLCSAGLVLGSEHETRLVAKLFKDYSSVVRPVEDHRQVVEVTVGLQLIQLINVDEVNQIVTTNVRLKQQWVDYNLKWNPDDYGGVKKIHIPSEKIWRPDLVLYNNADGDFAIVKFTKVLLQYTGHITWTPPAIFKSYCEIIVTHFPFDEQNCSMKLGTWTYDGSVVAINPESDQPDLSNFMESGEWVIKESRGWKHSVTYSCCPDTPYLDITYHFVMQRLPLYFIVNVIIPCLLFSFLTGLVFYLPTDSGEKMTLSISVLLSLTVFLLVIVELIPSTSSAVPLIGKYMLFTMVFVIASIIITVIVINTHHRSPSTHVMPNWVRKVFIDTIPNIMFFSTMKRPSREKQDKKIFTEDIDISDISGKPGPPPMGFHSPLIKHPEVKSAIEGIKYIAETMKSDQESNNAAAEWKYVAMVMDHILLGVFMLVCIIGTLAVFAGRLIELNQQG
Chain of UniProt O15151 (whole entry, looked up): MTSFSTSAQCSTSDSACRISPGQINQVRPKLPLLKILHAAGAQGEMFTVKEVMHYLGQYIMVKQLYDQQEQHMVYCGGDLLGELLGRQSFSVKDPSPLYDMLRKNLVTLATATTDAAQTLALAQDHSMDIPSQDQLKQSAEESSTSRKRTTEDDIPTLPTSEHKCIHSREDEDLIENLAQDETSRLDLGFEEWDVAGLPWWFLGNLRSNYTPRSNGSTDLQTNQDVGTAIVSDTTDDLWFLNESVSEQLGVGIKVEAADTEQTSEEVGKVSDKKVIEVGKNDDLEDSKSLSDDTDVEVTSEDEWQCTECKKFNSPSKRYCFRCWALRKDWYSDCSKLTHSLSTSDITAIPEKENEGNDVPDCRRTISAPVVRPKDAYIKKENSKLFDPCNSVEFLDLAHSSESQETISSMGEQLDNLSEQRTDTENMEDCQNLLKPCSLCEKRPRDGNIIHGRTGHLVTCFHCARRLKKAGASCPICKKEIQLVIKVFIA
Chain of UniProt Q07157 (whole entry, looked up): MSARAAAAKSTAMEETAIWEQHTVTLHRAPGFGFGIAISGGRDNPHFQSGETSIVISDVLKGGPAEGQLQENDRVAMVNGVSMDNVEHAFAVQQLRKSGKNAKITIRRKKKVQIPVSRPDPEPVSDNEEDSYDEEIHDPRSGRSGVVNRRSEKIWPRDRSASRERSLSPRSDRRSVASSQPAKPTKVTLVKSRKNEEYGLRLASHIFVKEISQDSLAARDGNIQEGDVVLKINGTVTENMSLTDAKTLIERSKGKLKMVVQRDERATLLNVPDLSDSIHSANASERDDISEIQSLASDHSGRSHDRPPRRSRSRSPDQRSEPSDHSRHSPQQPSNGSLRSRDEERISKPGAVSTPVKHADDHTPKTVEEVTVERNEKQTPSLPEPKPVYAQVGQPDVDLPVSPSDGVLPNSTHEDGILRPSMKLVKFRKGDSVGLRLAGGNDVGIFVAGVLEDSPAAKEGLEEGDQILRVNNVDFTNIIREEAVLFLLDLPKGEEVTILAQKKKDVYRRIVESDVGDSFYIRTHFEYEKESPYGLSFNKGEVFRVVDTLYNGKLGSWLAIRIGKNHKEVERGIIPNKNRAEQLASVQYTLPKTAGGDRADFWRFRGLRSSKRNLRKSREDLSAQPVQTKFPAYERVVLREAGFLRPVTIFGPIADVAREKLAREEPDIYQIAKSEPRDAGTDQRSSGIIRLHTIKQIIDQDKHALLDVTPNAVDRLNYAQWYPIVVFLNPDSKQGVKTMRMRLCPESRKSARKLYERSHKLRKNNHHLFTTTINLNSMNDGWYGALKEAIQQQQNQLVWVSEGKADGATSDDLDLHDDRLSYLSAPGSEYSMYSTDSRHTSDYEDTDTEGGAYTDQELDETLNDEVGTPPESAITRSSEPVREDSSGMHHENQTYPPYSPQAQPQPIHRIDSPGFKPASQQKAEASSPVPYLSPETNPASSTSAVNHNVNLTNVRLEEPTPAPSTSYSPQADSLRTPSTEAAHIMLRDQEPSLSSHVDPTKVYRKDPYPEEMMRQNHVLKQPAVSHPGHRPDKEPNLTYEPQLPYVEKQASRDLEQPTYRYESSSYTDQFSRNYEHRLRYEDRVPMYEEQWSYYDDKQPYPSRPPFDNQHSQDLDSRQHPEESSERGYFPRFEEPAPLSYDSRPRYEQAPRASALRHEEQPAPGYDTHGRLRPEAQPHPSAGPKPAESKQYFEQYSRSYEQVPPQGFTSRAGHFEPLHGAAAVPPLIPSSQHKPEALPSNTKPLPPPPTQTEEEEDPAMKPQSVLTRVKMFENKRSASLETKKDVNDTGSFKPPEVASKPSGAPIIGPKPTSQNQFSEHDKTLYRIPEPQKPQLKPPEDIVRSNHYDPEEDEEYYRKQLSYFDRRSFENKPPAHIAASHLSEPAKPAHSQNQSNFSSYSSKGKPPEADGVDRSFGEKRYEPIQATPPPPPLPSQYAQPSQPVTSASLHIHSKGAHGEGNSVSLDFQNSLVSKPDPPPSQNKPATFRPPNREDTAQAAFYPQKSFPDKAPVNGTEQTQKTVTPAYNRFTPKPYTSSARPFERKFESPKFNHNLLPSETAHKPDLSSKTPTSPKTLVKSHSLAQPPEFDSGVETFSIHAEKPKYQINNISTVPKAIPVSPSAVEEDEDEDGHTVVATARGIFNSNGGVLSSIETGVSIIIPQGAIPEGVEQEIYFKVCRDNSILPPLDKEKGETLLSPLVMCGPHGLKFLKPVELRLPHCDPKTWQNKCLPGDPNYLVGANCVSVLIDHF
Chain of UniProt P33535 (whole entry, looked up): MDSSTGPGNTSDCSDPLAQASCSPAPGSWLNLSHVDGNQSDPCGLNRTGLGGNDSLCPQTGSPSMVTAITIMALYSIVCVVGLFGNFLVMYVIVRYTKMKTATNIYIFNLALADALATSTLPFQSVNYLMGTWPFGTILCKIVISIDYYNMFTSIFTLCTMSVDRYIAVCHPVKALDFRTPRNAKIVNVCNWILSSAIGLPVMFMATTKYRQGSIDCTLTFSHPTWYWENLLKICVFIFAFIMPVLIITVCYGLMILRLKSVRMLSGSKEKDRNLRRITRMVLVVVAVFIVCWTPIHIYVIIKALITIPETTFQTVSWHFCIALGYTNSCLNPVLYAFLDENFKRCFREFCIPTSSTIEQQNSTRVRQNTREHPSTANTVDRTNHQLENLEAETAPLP
Chain of UniProt Q13639 (whole entry, looked up): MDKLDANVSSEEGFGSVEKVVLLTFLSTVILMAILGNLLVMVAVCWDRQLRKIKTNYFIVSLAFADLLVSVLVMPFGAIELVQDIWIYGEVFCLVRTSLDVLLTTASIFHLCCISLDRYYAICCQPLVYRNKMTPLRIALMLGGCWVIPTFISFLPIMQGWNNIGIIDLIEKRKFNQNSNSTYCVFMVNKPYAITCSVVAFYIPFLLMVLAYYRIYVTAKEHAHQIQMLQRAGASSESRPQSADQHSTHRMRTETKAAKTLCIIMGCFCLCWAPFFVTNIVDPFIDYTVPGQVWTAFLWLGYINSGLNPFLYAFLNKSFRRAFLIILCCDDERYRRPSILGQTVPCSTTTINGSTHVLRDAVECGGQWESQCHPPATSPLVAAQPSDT
Chain of UniProt O95147 (whole entry, looked up): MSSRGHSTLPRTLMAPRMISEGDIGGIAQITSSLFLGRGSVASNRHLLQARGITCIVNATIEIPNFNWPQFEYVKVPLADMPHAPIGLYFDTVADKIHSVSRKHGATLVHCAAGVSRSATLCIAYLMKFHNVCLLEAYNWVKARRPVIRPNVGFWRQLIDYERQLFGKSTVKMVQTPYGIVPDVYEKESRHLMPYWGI

SMILES | target | assay | test system | setting | IC50 [nM]
CCC[C@H](NC(=O)[C@@H]1[C@H]2CCC[C@H]2CN1C(=O)[C@@H](NC(=O)[C@@H](NC(=O)c1cnccn1)C1CCCCC1)C(C)(C)C)C(=O)C(=O)NC1CC1 | Chymotrypsin-like elastase family member 1 (CELA1, Sus scrofa, UniProt P00772) | enzyme activity, inhibitor | – | with: FP-biotin 1 µM | 222
COc1cc(Nc2ncc(F)c(Nc3ccc4c(n3)NC(=O)C(C)(C)O4)n2)cc(OC)c1OC | Dual specificity protein phosphatase 14 (DUSP14, Homo sapiens, UniProt O95147) | – | – | MKP-6 | > 10000
CC[C@H](C)[C@H](NC(=O)[C@H](CCC(=O)O)NC(=O)[C@H](CC(C)C)NC(=O)[C@H](CC(C)C)NC(=O)[C@H](CCC(N)=O)NC(=O)[C@H](C)NC(=O)[C@H](CCCCN)NC(=O)[C@H](CC(=O)O)NC(=O)[C@@H](N)CC(C)C)C(=O)O | Uncharacterized protein | peptide binding, competitor, competitive radioligand binding | purified horse MHC class I | pH 7 | 59
CC(=O)N[C@@H](CCCCN)C(=O)N[C@H](C(=O)N[C@@H](Cc1ccccc1)C(=O)N[C@H]1CSCCCCCCS[C@H]2C[C@@H](C(N)=O)N(C2)C(=O)NC[C@H](CC(C)C)NC(=O)NC[C@H](CC(C)C)NC(=O)[C@H](C)NC(=O)[C@H](Cc2c[nH]c3ccccc23)NC(=O)[C@H](Cc2ccc(O)cc2)NC(=O)[C@H](CCC(=O)O)NC1=O)[C@@H](C)O | Protein Mdm4, with p53 (MDM4, Homo sapiens, UniProt O15151) | p53 binding, TR-FRET | – | – | 63.3
Cc1nc(-c2ccc(NCCCCCCN3C[C@H](O)[C@@H](O)[C@H](O)[C@H]3CO)c([N+](=O)[O-])c2)no1 | Ganab (Mus musculus, UniProt Q8BHN3) | enzyme activity, inhibitor | – | with: 4-methylumbelliferyl substrate | 3.6
CNC(C)Cc1ccc2nsnc2c1 (stereo not shown) | Sodium-dependent dopamine transporter (SLC6A3, Homo sapiens, UniProt Q01959) | – | – | – | 4500 ± 1300
COc1cc(C(=O)N2CC[C@@H](O)[C@@H](N)C2)cc2nc(-c3cc4ccccc4n3CC3CC3)n(C)c12 | Acetylcholine receptor subunit alpha (CHRNA1, Homo sapiens, UniProt P02708) | intracellular calcium, antagonist, fluorescence | – | – | 1580
O=[N+]([O-])c1ccc2ccc3cccc4ccc1c2c34 | Cytochrome P450 2A13 | enzyme activity, inhibitor | – | 20 min, pH 7.4 | > 100000
CCCC[C@@H](NC(=O)[C@@H](N)Cc1ccc(O)cc1)C(=O)NCC(=O)N[C@@H](Cc1ccc(F)cc1)C(=O)N(C)CCC[C@@]1(c2ccc(F)cc2)OCc2cc(C#N)ccc21 | Mu-type opioid receptor (Oprm1, Rattus norvegicus, UniProt P33535) | – | – | – | 34.7
O=C1CSC(c2cccc(Cl)c2)N1c1cccc(S(=O)(=O)Nc2nccs2)c1 (stereo not shown) | gag-pol reverse transcriptase | – | – | – | 2050
N/C(=N\C(=O)c1nc(Cl)c(N)nc1N)NCc1ccc(Cl)c(Cl)c1 | Genome polyprotein, 3D RNA polymerase (Coxsackievirus B3, UniProt P03313) | RNA polymerase activity, inhibitor, single AMP incorporation | – | Mg2+ preincubation | 45000 ± 1000
O=C1CSC(c2c(Cl)cccc2Cl)N1c1nc(-c2ccc(S(=O)(=O)N3CCCC3)cc2)cs1 (stereo not shown) | gag-pol reverse transcriptase | – | – | – | > 4000
COc1ncccc1-c1cnn2ccc(N3CCN(C(=O)OC(C)C)CC3)nc12 | 5-hydroxytryptamine receptor 4 (HTR4, Homo sapiens, UniProt Q13639) | liability screen | – | – | > 30000
C=Cc1ccc2ccc3cccc4ccc1c2c34 | Cytochrome P450 2A13 | enzyme activity, inhibitor | – | 20 min, pH 7.4 | > 180000
c1ccc2c(c1)OCC(C1=NCCN1)O2 (stereo not shown) | rat imidazoline I2 receptor | radioligand binding | brain | – | 6.96
O=C1CSC(c2ccc(F)cc2)N1c1cccc(S(=O)(=O)Nc2nccs2)c1 (stereo not shown) | gag-pol reverse transcriptase | – | – | – | 2230
CO[C@]1([C@@H]2CSC(=O)N2CCCO)C[C@H]2C[C@@H](CC[C@H](C)/C=C\C=C\CC/C(C)=C\C(=O)O2)O1 | Actin, alpha skeletal muscle, pyrene-labeled (ACTA1, Oryctolagus cuniculus, UniProt P68135) | actin polymerization, pyrene actin | – | – | 8550 ± 574
CC[C@H](C)[C@H](NC(=O)[C@H](CO)NC(=O)[C@@H](NC(=O)[C@H](CC(N)=O)NC(=O)[C@H](Cc1ccc(O)cc1)NC(=O)[C@H](Cc1ccccc1)NC(=O)[C@@H](NC(=O)[C@H](CCC(=O)O)NC(=O)[C@@H](NC(=O)[C@H](CC(=O)O)NC(=O)[C@@H](N)CCCNC(=N)N)[C@@H](C)CC)[C@@H](C)O)[C@@H](C)O)C(=O)O | Uncharacterized protein | peptide binding, competitor, competitive radioligand binding | purified horse MHC class I | pH 7 | 0.14
O=C(O)CC(F)(F)C(=O)N1N=C(c2c(-c3ccc(Cl)cc3)c3ccccc3[nH]c2=O)C[C@H]1c1ccc(Cl)cc1 | Ionotropic glutamate receptor NMDA 1/2D (Rattus norvegicus, UniProt P35439+Q62645) | ion current, inhibitor, two-electrode voltage clamp | Xenopus oocytes | with: glycine and glutamate | 23
O=C1CSC(c2cccc(Cl)c2)N1c1nc(-c2ccc(S(=O)(=O)N3CCOCC3)cc2)cs1 (stereo not shown) | gag-pol reverse transcriptase | – | – | – | 2360
CCOC(=O)[C@H]1Cc2c(cc([N+](=O)[O-])cc2[N+](=O)[O-])[C@@H](O)[C@@]12C(=O)Nc1ccc(C)cc12 | E3 ubiquitin-protein ligase Mdm2 (MDM2, Homo sapiens, UniProt Q00987) | – | – | – | 980 ± 70
CO[C@H]1[C@H](O[C@H]([C@H]2O[C@@H](n3ccc(=O)[nH]c3=O)[C@H](O)[C@@H]2O)[C@H](NCCCNC(=O)[C@@H](NC(=O)[C@@H](NC(=O)N[C@H](C(=O)O)C(C)C)[C@@H]2CCN=C(N)N2)[C@@H](O)C(C)C)C(=O)O)O[C@H](CN)[C@H]1O | Undecaprenyl-phosphate alpha-N-acetylglucosaminyl 1-phosphate transferase (wecA, Escherichia coli, UniProt P0AC78) | enzyme activity, inhibitor | – | – | 660 ± 15
CC#Cc1cc2cccc3ccc4cccc1c4c32 | Cytochrome P450 2A13 | enzyme activity, inhibitor | – | 20 min, pH 7.4 | > 180000
COc1ccc(C[C@H](NC(=O)[C@H](C)NC(=O)CN2CCOCC2)C(=O)N[C@@H](CC2CCC(F)(F)CC2)C(=O)[C@@]2(C)CO2)cc1 | Proteasome subunit beta type-7 (PSMB7, Homo sapiens, UniProt Q99436) | inhibitor, competitive ABPP | Raji cell lysate | constitutive proteasome β2c | > 10000
C[C@H]1CN(c2n[nH]c3nc(N[C@H]4CC[C@H](NS(=O)(=O)CCC(F)(F)F)CC4)ncc23)CCO1 | Tight junction protein 1 (TJP1, Homo sapiens, UniProt Q07157) | biochemical | – | – | ≥ 20000
CN1CCN(CCOc2c(Cl)cc(C(=O)N[C@@H](Cc3ccccc3)C(=O)O)c(O)c2Cl)CC1 | Cleavage and polyadenylation specificity factor subunit 3 (CPSF3, Homo sapiens, UniProt Q9UKF6) | pre-mRNA cleavage, inhibitor | HeLa nuclear extract | with: Chimera_3 substrate | 39500
CC(=O)c1ccc2ccc3cccc4ccc1c2c34 | Cytochrome P450 2A13 | enzyme activity, inhibitor | – | 20 min, pH 7.4 | 400 to 10000
CC[C@H](C)[C@H](NC(=O)[C@H](Cc1c[nH]cn1)NC(=O)[C@H](CCCNC(=N)N)NC(=O)[C@H](CC(C)C)NC(=O)[C@H](CCC(N)=O)NC(=O)[C@H](CO)NC(=O)[C@H](CC(N)=O)NC(=O)[C@@H]1CCCN1C(=O)[C@@H](NC(=O)[C@H](CC(=O)O)NC(=O)[C@@H](N)CCCCN)C(C)C)C(=O)O | Uncharacterized protein | peptide binding, competitor, competitive radioligand binding | purified horse MHC class I | pH 7 | 45

Repeated from above:
SMILES | target | assay | test system | setting | IC50 [nM]
CC#Cc1cc2cccc3ccc4cccc1c4c32 | Cytochrome P450 2A13 | enzyme activity, inhibitor | – | 20 min, pH 7.4 | > 180000
N/C(=N\C(=O)c1nc(Cl)c(N)nc1N)NCc1ccc(Cl)c(Cl)c1 | Genome polyprotein, 3D RNA polymerase (Coxsackievirus B3, UniProt P03313) | RNA polymerase activity, inhibitor, single AMP incorporation | – | Mg2+ preincubation | 45000 ± 1000
c1ccc2c(c1)OCC(C1=NCCN1)O2 (stereo not shown) | rat imidazoline I2 receptor | radioligand binding | brain | – | 6.96
